{"data": "Experimental data of several laboratories"}
{"Compound": "C=CC(=O)NC1CCN(c2ncc3ncnc(Nc4ccc(Oc5ccc6c(c5)ncn6C)c(C)c4)c3n2)CC1", "system": "male patients", "conditions": "oral, dose not given, on-treatment adverse events", "measurement": "patients with muscle twitching", "result": "0%"}
{"Compound": "Cc1cc(NC2CCN(C(=O)OC3CCN(C(=O)/C=C/CN(C)C)C3)CC2)n2ncc(C(C)C)c2n1 (stereo not drawn)", "assay": "Phase I dose escalation CTCAE v4.0, refers to: maculo-papular rash", "system": "patients with advanced solid tumours", "conditions": "dose not given, Total dosing any grade", "measurement": "patients with adverse event", "result": "6%"}
{"Compound": "C=CC(=O)Nc1cc(Nc2nccc(-c3cn(C)c4ccccc34)n2)c(OC)cc1N(C)CCN(C)C", "assay": "refers to: treatment-related grade ≥3 Dyspnea", "system": "EGFR-mutant MET-altered NSCLC", "conditions": "oral, dose not given, all", "measurement": "patients with adverse events", "result": "1%"}
{"Compound": "FC(F)(F)c1ccc(CNc2ccc(Cc3c[nH]c4ncc(Cl)cc34)cn2)cn1", "assay": "refers to: at least 1 adverse event", "system": "non-TGCT solid tumour patients", "conditions": "oral, 1000 mg/day, grade 3 or higher", "measurement": "patients with treatment-related adverse event", "result": "35%"}
{"Compound": "O=C(Nc1nc2cccc(-c3ccc(CN4CCS(=O)(=O)CC4)cc3)n2n1)C1CC1", "assay": "refers to: bile reflux into stomach", "system": "rheumatoid arthritis patients", "conditions": "oral, 300 mg once daily, 4 weeks, any relatedness", "measurement": "patients with adverse event", "result": "0%"}
{"Compound": "C[C@@H](c1ccc2nccn2c1)n1nnc2ncc(-c3cnn(C)c3)nc21", "assay": "refers to: Pain grade ≥3", "system": "EGFR-mutant MET-altered NSCLC", "conditions": "oral, dose not given, study", "measurement": "patients with treatment-related AEs", "result": "0%"}
{"Compound": "Cc1cc(-c2nnc(N)nc2-c2ccc(F)cc2)cc(Cl)n1", "assay": "refers to: Arthritis", "system": "IO-naive mCRPC patients, male", "conditions": "oral, dose not given, treatment-related, grade 1", "measurement": "patients with immune-mediated AE", "result": "0%"}
{"Compound": "COc1cc2nccc(Oc3ccc(NC(=O)c4cc5c(n(-c6ccccc6)c4=O)CCCC5=O)nc3)c2cc1OC", "system": "patients with relapsed/refractory AML", "conditions": "oral, 3 mg once daily", "measurement": "TEAEs, drug-related, patients with", "result": "60%"}
{"Compound": "CCO[C@H]1CCN(Cc2c(OC)cc(C)c3[nH]ccc23)[C@H](c2ccc(C(=O)O)cc2)C1", "assay": "refers to: Cough", "system": "PNH patients, active haemolysis", "conditions": "oral, 200 mg twice daily, extension phase", "measurement": "patients with adverse event", "result": "33.3%"}
{"Compound": "COc1ccc([C@@H](O)c2cc(-c3ncnc4cc(N5CCOCC5)ccc34)c(F)cc2Cl)nn1", "assay": "refers to: general and administration site disorders", "system": "locally advanced rectal cancer patients", "conditions": "50 mg, added: capecitabine plus radiotherapy", "measurement": "patients with TEAE", "result": "100%"}
{"Compound": "C[C@@H](Nc1cc(F)cc(F)c1)c1cc(C(=O)N(C)C)cc2c(=O)cc(N3CCOCC3)oc12", "assay": "refers to: Hematuria", "system": "advanced solid tumour patients", "conditions": "oral, dose not given, dose finding", "measurement": "patients discontinuing for AE", "result": "0%"}
{"Compound": "CNC(=O)c1ccc(-c2cnc3ncc(Cc4ccc5ncccc5c4)n3n2)cc1F", "assay": "refers to: Diarrhea, all grades", "system": "cancer patients", "conditions": "oral, 600 mg twice daily, expansion cohort, any causality", "measurement": "patients with adverse event", "result": "24%"}
{"Compound": "CNC(=O)c1cc(Oc2ccc(NC(=O)Nc3cc(C(C)(C)C)nn3-c3ccc4ncccc4c3)c(F)c2)ccn1", "system": "patients", "conditions": "oral, dose not given, cycles 1 and 2, Low AUC subgroup", "measurement": "patients with visual abnormalities", "result": "20%"}
{"Compound": "CCOc1c([C@H](C)n2nc(C)c3c(N)ncnc32)cc(Cl)c(F)c1[C@@H]1CNC(=O)C1", "assay": "refers to: QTcF above 500 ms", "system": "previously treated B-cell malignancy", "conditions": "oral, 45 mg once daily, baseline QTcF ≤450 ms", "measurement": "patients", "result": "0%"}
{"Compound": "COc1cc(Nc2ncc3c(n2)-c2ccc(Cl)cc2C(c2c(F)cccc2OC)=NC3)ccc1C(=O)O", "assay": "refers to: Anorexia, grade 1", "system": "cancer patients, phase 1/2", "conditions": "oral, dose not given, added: pembrolizumab", "measurement": "patients with adverse event", "result": "21%"}
{"note": "Excerpt of the above:"}
{"Compound": "Cc1cc(NC2CCN(C(=O)OC3CCN(C(=O)/C=C/CN(C)C)C3)CC2)n2ncc(C(C)C)c2n1 (stereo not drawn)", "assay": "Phase I dose escalation CTCAE v4.0, refers to: maculo-papular rash", "system": "patients with advanced solid tumours", "conditions": "dose not given, Total dosing any grade", "measurement": "patients with adverse event", "result": "6%"}
